Results collected from several papers.
Protocols differ between the studies behind these lines. Several values in a cell are separate wells, animals, samples, runs or records. ± marks the error that the study gave.
CYP1B1: Cytochrome P450 1B1 (CYP1B1, Homo sapiens, UniProt Q16678)
UniProt Q16678, sequence (whole entry, looked up): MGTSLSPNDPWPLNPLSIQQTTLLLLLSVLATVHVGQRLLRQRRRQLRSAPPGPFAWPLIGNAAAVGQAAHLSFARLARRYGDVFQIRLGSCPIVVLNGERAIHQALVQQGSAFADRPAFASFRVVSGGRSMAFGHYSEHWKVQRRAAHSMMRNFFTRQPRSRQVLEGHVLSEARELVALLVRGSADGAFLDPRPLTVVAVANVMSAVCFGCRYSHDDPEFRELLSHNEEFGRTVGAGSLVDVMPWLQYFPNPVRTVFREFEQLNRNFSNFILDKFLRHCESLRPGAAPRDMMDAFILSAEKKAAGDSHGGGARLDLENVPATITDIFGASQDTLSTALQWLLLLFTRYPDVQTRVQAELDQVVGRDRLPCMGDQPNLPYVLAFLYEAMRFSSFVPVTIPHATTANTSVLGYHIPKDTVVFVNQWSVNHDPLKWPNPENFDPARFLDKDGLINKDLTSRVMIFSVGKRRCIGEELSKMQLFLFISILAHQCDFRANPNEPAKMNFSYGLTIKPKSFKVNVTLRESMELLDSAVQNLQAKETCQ
LGB: Beta-lactoglobulin (LGB, Bos taurus, UniProt P02754)
UniProt P02754, sequence (whole entry, looked up): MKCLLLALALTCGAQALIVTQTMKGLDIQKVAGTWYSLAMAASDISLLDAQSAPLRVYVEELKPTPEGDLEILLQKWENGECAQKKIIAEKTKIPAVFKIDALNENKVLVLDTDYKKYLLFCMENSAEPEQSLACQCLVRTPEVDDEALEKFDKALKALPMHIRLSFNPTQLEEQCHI
methionine aminopeptidase: methionine aminopeptidase (Acinetobacter baumannii, UniProt A0A7U4DGZ4)
UniProt P0ADV1, sequence (whole entry, looked up): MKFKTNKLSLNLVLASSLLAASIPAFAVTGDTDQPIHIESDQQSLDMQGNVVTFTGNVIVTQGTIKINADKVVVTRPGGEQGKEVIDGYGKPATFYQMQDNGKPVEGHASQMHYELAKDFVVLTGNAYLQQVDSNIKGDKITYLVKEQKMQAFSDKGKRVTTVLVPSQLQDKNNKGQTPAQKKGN
UniProt Q13126, sequence (whole entry, looked up): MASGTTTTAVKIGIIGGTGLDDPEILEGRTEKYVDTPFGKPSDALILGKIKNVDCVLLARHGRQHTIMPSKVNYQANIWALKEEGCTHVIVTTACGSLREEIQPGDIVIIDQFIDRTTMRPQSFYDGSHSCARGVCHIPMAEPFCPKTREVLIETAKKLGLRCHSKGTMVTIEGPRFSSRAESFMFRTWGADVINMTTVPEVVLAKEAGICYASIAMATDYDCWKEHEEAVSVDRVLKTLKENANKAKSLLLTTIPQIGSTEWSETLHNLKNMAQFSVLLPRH
UniProt P10408, sequence (whole entry, unmodified, looked up): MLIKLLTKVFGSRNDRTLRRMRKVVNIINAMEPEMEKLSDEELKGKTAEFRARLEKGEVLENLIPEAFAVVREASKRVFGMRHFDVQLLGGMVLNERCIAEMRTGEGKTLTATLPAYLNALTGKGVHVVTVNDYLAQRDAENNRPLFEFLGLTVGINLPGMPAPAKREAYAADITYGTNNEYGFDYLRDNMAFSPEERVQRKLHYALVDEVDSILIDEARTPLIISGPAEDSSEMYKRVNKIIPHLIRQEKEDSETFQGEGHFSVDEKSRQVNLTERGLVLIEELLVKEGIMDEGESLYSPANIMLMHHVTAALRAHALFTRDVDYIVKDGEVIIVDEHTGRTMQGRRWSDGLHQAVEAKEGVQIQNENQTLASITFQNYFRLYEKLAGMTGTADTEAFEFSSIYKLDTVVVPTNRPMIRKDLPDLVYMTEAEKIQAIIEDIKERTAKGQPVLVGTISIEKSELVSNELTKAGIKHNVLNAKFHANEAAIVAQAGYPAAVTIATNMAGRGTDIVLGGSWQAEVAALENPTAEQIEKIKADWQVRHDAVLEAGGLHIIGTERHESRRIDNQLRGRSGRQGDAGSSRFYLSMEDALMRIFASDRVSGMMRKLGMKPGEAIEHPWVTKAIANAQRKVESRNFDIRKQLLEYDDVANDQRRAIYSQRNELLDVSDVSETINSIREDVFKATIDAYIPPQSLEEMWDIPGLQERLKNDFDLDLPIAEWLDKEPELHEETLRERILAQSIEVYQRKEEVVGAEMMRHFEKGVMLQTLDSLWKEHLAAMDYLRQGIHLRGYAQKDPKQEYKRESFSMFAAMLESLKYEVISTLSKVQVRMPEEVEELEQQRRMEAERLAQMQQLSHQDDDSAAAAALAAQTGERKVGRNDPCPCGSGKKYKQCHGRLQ
UniProt Q38087, sequence (whole entry, unmodified, looked up): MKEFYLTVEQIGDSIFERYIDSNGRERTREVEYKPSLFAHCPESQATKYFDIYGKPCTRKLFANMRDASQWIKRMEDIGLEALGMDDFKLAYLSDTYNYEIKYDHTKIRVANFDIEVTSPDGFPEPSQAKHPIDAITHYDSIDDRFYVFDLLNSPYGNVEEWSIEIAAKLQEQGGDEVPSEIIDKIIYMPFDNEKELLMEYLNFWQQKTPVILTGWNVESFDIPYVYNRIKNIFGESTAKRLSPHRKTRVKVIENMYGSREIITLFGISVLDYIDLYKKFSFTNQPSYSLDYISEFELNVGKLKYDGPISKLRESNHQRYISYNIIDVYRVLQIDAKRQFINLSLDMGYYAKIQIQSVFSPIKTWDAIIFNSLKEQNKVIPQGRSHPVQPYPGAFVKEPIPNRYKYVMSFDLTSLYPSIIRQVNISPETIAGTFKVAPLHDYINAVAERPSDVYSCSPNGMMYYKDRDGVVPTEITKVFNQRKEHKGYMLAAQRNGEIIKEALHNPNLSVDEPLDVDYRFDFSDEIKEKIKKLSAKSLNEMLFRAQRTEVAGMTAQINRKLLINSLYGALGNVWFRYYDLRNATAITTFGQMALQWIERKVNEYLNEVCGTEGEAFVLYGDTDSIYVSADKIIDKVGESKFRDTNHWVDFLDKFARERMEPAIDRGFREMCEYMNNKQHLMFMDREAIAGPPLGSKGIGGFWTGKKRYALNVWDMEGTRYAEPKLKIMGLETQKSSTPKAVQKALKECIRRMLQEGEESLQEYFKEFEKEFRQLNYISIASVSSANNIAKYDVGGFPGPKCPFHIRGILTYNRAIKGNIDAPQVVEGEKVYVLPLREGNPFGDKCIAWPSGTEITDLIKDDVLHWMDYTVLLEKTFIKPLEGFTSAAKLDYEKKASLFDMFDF
UniProt Q07820, sequence (whole entry, looked up): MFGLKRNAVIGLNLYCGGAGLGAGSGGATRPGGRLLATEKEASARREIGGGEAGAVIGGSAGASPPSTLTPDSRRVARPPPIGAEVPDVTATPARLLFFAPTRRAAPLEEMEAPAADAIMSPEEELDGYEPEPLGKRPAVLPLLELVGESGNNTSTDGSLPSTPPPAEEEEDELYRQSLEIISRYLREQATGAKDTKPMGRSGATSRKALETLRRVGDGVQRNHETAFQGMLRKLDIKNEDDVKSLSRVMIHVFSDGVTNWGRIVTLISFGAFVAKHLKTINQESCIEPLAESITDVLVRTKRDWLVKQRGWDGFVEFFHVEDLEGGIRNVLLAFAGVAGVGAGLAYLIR
UniProt P06169, sequence (whole entry, unmodified, looked up): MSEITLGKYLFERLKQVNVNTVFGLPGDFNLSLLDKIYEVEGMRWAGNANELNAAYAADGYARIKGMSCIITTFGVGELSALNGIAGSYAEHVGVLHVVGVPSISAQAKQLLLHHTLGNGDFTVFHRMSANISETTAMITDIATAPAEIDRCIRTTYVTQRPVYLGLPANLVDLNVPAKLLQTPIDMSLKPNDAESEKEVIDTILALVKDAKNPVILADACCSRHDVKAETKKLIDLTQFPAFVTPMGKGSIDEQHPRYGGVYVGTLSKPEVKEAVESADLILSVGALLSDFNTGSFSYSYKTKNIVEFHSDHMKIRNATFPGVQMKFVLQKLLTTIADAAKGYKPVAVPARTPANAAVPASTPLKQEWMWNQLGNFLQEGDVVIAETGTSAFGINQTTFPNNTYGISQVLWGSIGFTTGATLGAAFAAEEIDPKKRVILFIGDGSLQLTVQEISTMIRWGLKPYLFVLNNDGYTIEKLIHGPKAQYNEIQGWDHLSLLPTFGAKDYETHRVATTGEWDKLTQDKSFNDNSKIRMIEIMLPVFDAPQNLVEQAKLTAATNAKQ
UniProt P21879, sequence (whole entry, looked up): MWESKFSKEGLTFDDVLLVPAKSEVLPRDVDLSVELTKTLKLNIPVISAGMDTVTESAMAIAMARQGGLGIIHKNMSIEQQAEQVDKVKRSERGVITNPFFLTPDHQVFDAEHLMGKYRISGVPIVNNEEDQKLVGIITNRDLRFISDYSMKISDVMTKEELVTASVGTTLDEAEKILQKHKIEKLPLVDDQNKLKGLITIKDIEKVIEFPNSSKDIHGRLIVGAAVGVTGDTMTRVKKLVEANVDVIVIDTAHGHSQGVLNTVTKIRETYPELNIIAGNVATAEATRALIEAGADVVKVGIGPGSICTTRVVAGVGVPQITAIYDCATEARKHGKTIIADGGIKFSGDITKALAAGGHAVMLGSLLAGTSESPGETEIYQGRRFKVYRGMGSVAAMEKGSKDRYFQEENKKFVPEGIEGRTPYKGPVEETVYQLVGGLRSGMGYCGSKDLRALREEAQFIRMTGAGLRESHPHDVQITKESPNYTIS
UniProt Q97W02, sequence (whole entry, looked up): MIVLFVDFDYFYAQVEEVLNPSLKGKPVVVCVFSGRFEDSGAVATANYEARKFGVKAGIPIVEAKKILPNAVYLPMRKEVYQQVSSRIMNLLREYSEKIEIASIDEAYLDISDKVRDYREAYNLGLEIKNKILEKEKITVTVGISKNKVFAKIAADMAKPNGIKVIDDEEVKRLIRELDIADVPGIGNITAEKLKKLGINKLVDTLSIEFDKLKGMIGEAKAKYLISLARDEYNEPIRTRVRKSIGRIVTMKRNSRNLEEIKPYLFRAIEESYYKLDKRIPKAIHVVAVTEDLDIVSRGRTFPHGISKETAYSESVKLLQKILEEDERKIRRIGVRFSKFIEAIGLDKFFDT

Substance | target | test | test system | setting | Kd
Nc1ncnc2c1ncn2[C@@H]1O[C@H](COP(=O)(O)OP(=O)(O)OP(=O)(O)O)[C@@H](O)[C@H]1O | EGFR (Homo sapiens, UniProt P00533) |  |  |  | 18 µM
CC[C@H](C)[C@@H]1NC(=O)CNC(=O)[C@H](C)NC(=O)[C@@H]2CCCN2C(=O)[C@H]([C@@H](C)CC)NC(=O)[C@H](CCCNC(=N)N)NC(=O)[C@@H](N)CSSC[C@@H](C(=O)NCC(=O)NCC(=O)NCC(=O)NCC(=O)N[C@@H](CO)C(=O)N2CCC[C@H]2C(=O)N[C@@H](C)C(=O)N2CCC[C@H]2C(=O)N[C@@H](C)C(=O)N[C@@H](CCCCN)C(=O)O)NC(=O)[C@H](Cc2ccc(O)cc2)NC(=O)[C@H](CCCNC(=N)N)NC(=O)[C@H](CCCNC(=N)N)NC(=O)[C@H](CCC(=O)O)NC(=O)CNC(=O)[C@H](C)NC1=O | sapA (Haemophilus influenzae, UniProt Q4QL73) | binding, SPR |  | 25 °C, with: immobilised oxidised defensin loop peptide | 0.0171 µM
COc1ccc2cc3[n+](cc2c1OC)CCc1cc2c(cc1-3)OCO2 | HTH-type transcriptional regulator QacR (qacR, Staphylococcus aureus, UniProt P0A0N4) | binding, tryptophan fluorescence quenching |  | pH 7.5 | 2.86 ± 0.62 µM
CSCC1NC(c2c[nH]c3c(N)ncnc23)[C@@H](O)[C@H]1O (stereo partly shown) | MTAP (Homo sapiens, UniProt Q13126) | binding third site, isothermal titration calorimetry |  |  | 0.7 ± 0.3 µM
Nc1nc2c(ncn2[C@H]2C[C@H](O)[C@@H](COP(=O)(O)OP(=O)(O)OP(=O)(O)O)O2)c(=O)[nH]1 | DNA-directed DNA polymerase, with primer/template (43, Escherichia phage RB69, UniProt Q38087, D222A/D327A/Y567A) | fluorescence titration |  | dNTP opposite tC° | 0.5 ± 0.2 µM
CC(C)CCC[C@@H](C)[C@H]1CC[C@@]2(C)C3=C(CC[C@]12C)[C@@]1(C)CC[C@H](O)C(C)(C)[C@@H]1CC3 | Sterol 14-alpha demethylase (Acanthamoeba castellanii, UniProt L8GJB3) | sterol binding, spectral titration |  | 40% w/v HPCD | 60 ± 12 µM
CC(=O)N[C@@H](Cc1c[nH]c2ccccc12)C(=O)N[C@@H](CCCCN)C(=O)N[C@@H](CCCCN)C(=O)N[C@@H](CC(C)C)C(=O)N[C@@H](CC(C)C)C(=O)N[C@@H](CCCCN)C(=O)N[C@@H](CC(C)C)C(=O)N[C@@H](CC(C)C)C(=O)N[C@@H](CCCCN)C(=O)N[C@@H](CCCCN)C(=O)N[C@@H](CC(C)C)C(=O)N[C@@H](CC(C)C)C(=O)N[C@@H](CCCCN)C(=O)N[C@@H](CC(C)C)C(=O)N[C@@H](C)C(=O)NCC(N)=O | HCV IRES domain IV hairpin | competitive fluorescence anisotropy |  | pH 7.4, 20 °C, with: rhodamine-Rev peptide | 0.00074 ± 7e-05 µM
RPIIWIGQEISRVGDRENAYYAR | MCL1 (Homo sapiens, UniProt Q07820) | binding, fluorescence anisotropy | peptide |  | 0.045 ± 0.0061 µM
CC[C@H](C)[C@H](NC(=O)[C@H](CC(=O)O)NC(=O)CNC(=O)[C@H](CCC(N)=O)NC(=O)[C@H](C)NC(=O)[C@H](C)NC(=O)[C@H](CCCNC(=N)N)NC(=O)[C@H](CC(N)=O)NC(=O)[C@H](CCC(=O)O)NC(=O)[C@H](CC(C)C)NC(=O)[C@@H](NC(=O)[C@@H]1CCCN1C(=O)[C@H](CCSC)NC(=O)[C@H](CCC(=O)O)NC(=O)[C@@H]1CCCN1C(=O)[C@@H](NC(=O)[C@H](CCCNC(=N)N)NC(=O)[C@H](C)NC(=O)[C@H](CCCCN)NC(=O)[C@@H](NC(=O)[C@@H](NC(=O)[C@@H]1CCCN1C(=O)[C@@H](NC(=O)[C@H](Cc1ccc(O)cc1)NC(=O)[C@H](CC(C)C)NC(=O)[C@H](CC(C)C)NC(=O)[C@@H]1CCCN1C(=O)[C@H](CC(C)C)NC(=O)[C@H](CC(C)C)NC(=O)[C@H](C)NC(=O)[C@H](CC(C)C)NC(=O)[C@H](C)NC(=O)[C@@H](NC(=O)[C@@H](NC(=O)[C@H](CO)NC(=O)[C@H](CCC(N)=O)NC(=O)[C@H](CCCCN)NC(=O)[C@H](CS)NC(=O)[C@@H](N)CCSC)[C@@H](C)O)[C@@H](C)CC)[C@@H](C)O)C(C)C)[C@@H](C)O)[C@@H](C)O)C(C)C)C(=O)N[C@H](C(=O)N[C@@H](C)C(N)=O)[C@@H](C)O | secA (Escherichia coli, UniProt P10408, C885S/C887S/C896S/C98S/S696C) | fluorescence anisotropy |  | pH 7.5, mutant, with: IAN-labelled signal peptide 1 µM | 7.5 ± 1.3 µM
TAMRA-ATP | mutS (Escherichia coli, UniProt P23909, D693N) | fluorescence anisotropy |  | room temperature, no DNA | 0.505 ± 0.025 µM
C=Cc1ccc2ccc3cccc4ccc1c2c34 | CYP1B1 | binding, fluorescence |  | pH 7.4 | 2 µM and < 2.5 µM
O=C(O[C@@H]1Cc2c(O)cc(O)cc2O[C@@H]1c1cc(O)c(O)c(O)c1)c1cc(O)c(O)c(O)c1 | Beta-2-microglobulin, Cu(II)-bound (B2M, Homo sapiens, UniProt P61769) | binding to Cu(II)-β2m, covalent labelling MS (DEPC, Lys6) |  | with: Cu(II) 60 µM | 3 ± 2 µM
CC(=O)N[C@@H](CC(C)C)C(=O)N[C@@H](CCCCN)C(=O)N[C@@H](CCCCN)C(=O)N[C@@H](CC(C)C)C(=O)N[C@@H](CC(C)C)C(=O)N[C@@H](CCCCN)C(=O)N[C@@H](CC(C)C)C(=O)N[C@@H](CC(C)C)C(=O)N[C@@H](CCCCN)C(=O)N[C@@H](CCCCN)C(=O)N[C@@H](CC(C)C)C(=O)N[C@@H](Cc1c[nH]c2ccccc12)C(=O)N[C@@H](CCCCN)C(=O)N[C@@H](CC(C)C)C(=O)N[C@@H](C)C(=O)NCC(N)=O | HCV IRES domain IV hairpin | competitive fluorescence anisotropy |  | pH 7.4, 20 °C, with: rhodamine-Rev peptide | 0.0023 ± 2e-05 µM
[N-]=[N+]=Nc1ccc[n+]([C@@H]2O[C@H](COP(=O)([O-])OP(=O)(O)OC[C@H]3O[C@@H](n4cnc5c(N)ncnc54)[C@H](O)[C@@H]3O)[C@@H](O)[C@H]2O)c1 | glucose dehydrogenase (Bacillus megaterium) | tryptophan fluorescence quenching |  |  | 300 µM
NC(=O)c1cccnc1 | kptA (Runella slithyformis, UniProt A0A7U3ZK32) | isothermal titration calorimetry |  | 17 °C | no binding
CC[C@H](C)[C@H](NC(=O)[C@@H](NC(=O)[C@@H]1CCCN1C(=O)[C@@H](NC(=O)[C@H](CCCCN)NC(=O)CN)C(C)C)[C@@H](C)CC)C(=O)N[C@@H](Cc1ccc(O)cc1)C(=O)N[C@H]1CSSC[C@@H](C(=O)N[C@@H](CCCCN)C(=O)N[C@@H](CCCNC(=N)N)C(=O)N[C@@H](CCSC)C(=O)O)NC(=O)[C@H](C(C)C)NC(=O)CNC(=O)[C@H]([C@@H](C)O)NC(=O)[C@H](CCCCN)NC(=O)[C@H](CCCNC(=N)N)NC(=O)[C@H](CC(N)=O)NC1=O | lptA (Escherichia coli, UniProt P0ADV1) | binding, BLI |  |  | 0.002 µM

Substance | target | test | test system | setting | Kd
CCC(=O)[PH](=O)O | PDC1 (Saccharomyces cerevisiae, UniProt P06169, C221E/C222A) | circular dichroism |  | pH 6.0, 25 °C | 7830 µM
COc1cc2c(cc1OC)C13CCN4CC5=CCOC(CC(=O)O)C(C5CC41)C3N2 (stereo not shown) | Soluble acetylcholine receptor (Aplysia californica, UniProt Q8WSF8) | binding, scintillation proximity |  | with: 20 nM [3H]epibatidine | 0.0163 µM
NC(=O)c1ccc[n+]([C@@H]2O[C@H](COP(=O)([O-])OP(=O)(O)OC[C@H]3O[C@@H](n4cnc5c(N)ncnc54)[C@H](OP(=O)(O)O)[C@@H]3O)[C@@H](O)[C@H]2O)c1 | L-ornithine N(5)-monooxygenase (Neosartorya fumigata, UniProt E9QYP0) | fluorescence polarization displacement |  | pH 7.0, with: 30 nM fluorescent probe | 4 ± 1 µM
C#Cc1cc2ccc3cccc4ccc(c1)c2c34 | CYP1B1 | binding, fluorescence |  | pH 7.4 | 2.1 µM and < 2.5 µM
CC1=C(/C=C/C(C)=C/C=C/C(C)=C/CO)C(C)(C)CCC1 | Xenopus IRBP W587F | binding, retinol fluorescence enhancement |  |  | 0.05 ± 0.04 µM
CO[C@H](C/C=C\C=C\CC/C=C/C[C@H](C)/C=C/C(=C\C(=O)O)CC(=O)O)/C(C)=C\C=C(/C)C(=O)O | SLC25A4 (Homo sapiens, UniProt P12235) | binding, SPR |  |  | 19.3 µM
CC1=C(/C=C/C(C)=C/C=C/C(C)=C/C=C/C=C(C)/C=C/C=C(C)/C=C/C2=C(C)C(=O)[C@@H](O)CC2(C)C)C(C)(C)C[C@H](O)C1=O | LGB | binding |  |  | 1.92 ± 0.04 µM
Oc1ccccc1-c1ccccc1O | SUMO-conjugating enzyme UBC9 (Homo sapiens, UniProt P63279) | binding, surface plasmon resonance |  | saturation not reached | > 2000 µM
Nc1ncnc2c1ncn2[C@@H]1O[C@H](COP(=O)(O)OP(=O)(O)OP(=O)(O)OP(=O)(O)OP(=O)(O)OC[C@H]2O[C@@H](n3cnc4c(N)ncnc43)[C@H](O)[C@@H]2O)[C@@H](O)[C@H]1O | guaB (Bacillus subtilis, UniProt P21879) |  |  |  | 30.4 ± 23.5 µM
[Co+2] | methionine aminopeptidase | metal binding, activator, activity titration | ATCC 17978 | divalent metal ion Kd, with: Met-AMC substrate | 0.45 µM
CC1=C(/C=C/C(C)=C/C=C/C(C)=C/C=C/C=C(C)/C=C/C=C(C)/C=C/C2=C(C)C[C@@H](O)CC2(C)C)C(C)(C)C[C@H](O)C1 | LGB | binding |  |  | 3.07 ± 0.04 µM
Nc1ncnc2c1ncn2[C@H]1C[C@H](O)[C@@H](COP(=O)(O)OP(=O)(O)OP(=O)(O)O)O1 | DNA polymerase IV, with DNA (dbh, Saccharolobus solfataricus, UniProt Q97W02) | dNTP incorporation, substrate, single-turnover kinetics |  | 37 °C, insertion opposite lesion, with: DNA with dG-C8-N-ABA lesion, Dpo4 120 nM | 640 ± 170 µM
[Mn+2] | methionine aminopeptidase | metal binding, activator, activity titration | ATCC 17978 | divalent metal ion Kd, with: Met-AMC substrate | 0.57 µM
Nc1ncnc2c1ncn2[C@@H]1O[C@H](COP(=O)(O)OP(=O)(O)O)[C@@H](O)[C@H]1O | Kynurenine 3-monooxygenase (Pseudomonas fluorescens, UniProt Q84HF5) | fluorescence polarization displacement |  | pH 7.0, with: 30 nM fluorescent probe | 50 ± 10 µM
CC(C)[C@H](NC(=O)[C@H](CC(N)=O)NC(=O)CNC(=O)[C@H](CC(=O)O)NC(=O)[C@H](CCCNC(=N)N)NC(=O)[C@H](CC(N)=O)NC(=O)[C@@H](N)CC(=O)O)C(=O)N[C@@H](Cc1ccc(O)cc1)C(=O)N[C@@H](Cc1ccc(O)cc1)C(=O)N[C@@H](Cc1ccccc1)C(=O)O | Serine endoprotease DegS (degS, Escherichia coli, UniProt P0AEE3) |  |  |  | 0.2 µM

For quick reference, copied from above:
Substance | target | test | test system | setting | Kd
O=C(O[C@@H]1Cc2c(O)cc(O)cc2O[C@@H]1c1cc(O)c(O)c(O)c1)c1cc(O)c(O)c(O)c1 | Beta-2-microglobulin, Cu(II)-bound (B2M, Homo sapiens, UniProt P61769) | binding to Cu(II)-β2m, covalent labelling MS (DEPC, Lys6) |  | with: Cu(II) 60 µM | 3 ± 2 µM
[N-]=[N+]=Nc1ccc[n+]([C@@H]2O[C@H](COP(=O)([O-])OP(=O)(O)OC[C@H]3O[C@@H](n4cnc5c(N)ncnc54)[C@H](O)[C@@H]3O)[C@@H](O)[C@H]2O)c1 | glucose dehydrogenase (Bacillus megaterium) | tryptophan fluorescence quenching |  |  | 300 µM
